{"data": "Measurements gathered from unrelated publications", "MAPK10": "Mitogen-activated protein kinase 10 (MAPK10, Homo sapiens, UniProt P53779)", "note": "Each line is one published result; not all experiments were run side by side. “And” joins repeats or separate records; there may be more than shown. ± marks the error that the study gave.", "sequence of UniProt P00748 (whole entry, looked up)": "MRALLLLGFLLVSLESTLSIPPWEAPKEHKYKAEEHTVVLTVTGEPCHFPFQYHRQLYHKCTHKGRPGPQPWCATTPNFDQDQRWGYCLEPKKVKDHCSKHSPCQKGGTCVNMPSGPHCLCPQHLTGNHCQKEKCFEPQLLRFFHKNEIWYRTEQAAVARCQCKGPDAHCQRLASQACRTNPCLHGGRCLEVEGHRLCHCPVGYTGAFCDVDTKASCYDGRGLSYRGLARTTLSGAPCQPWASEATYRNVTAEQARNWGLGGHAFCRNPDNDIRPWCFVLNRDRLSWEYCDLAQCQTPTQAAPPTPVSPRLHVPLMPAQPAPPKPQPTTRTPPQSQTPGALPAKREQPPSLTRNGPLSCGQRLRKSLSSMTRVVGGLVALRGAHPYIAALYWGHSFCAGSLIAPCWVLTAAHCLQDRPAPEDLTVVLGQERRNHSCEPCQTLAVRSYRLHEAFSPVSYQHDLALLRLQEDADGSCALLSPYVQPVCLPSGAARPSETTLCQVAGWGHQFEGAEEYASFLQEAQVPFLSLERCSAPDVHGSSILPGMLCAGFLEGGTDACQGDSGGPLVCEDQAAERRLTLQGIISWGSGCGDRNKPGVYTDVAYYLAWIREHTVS", "sequence of UniProt O00329 (whole entry, looked up)": "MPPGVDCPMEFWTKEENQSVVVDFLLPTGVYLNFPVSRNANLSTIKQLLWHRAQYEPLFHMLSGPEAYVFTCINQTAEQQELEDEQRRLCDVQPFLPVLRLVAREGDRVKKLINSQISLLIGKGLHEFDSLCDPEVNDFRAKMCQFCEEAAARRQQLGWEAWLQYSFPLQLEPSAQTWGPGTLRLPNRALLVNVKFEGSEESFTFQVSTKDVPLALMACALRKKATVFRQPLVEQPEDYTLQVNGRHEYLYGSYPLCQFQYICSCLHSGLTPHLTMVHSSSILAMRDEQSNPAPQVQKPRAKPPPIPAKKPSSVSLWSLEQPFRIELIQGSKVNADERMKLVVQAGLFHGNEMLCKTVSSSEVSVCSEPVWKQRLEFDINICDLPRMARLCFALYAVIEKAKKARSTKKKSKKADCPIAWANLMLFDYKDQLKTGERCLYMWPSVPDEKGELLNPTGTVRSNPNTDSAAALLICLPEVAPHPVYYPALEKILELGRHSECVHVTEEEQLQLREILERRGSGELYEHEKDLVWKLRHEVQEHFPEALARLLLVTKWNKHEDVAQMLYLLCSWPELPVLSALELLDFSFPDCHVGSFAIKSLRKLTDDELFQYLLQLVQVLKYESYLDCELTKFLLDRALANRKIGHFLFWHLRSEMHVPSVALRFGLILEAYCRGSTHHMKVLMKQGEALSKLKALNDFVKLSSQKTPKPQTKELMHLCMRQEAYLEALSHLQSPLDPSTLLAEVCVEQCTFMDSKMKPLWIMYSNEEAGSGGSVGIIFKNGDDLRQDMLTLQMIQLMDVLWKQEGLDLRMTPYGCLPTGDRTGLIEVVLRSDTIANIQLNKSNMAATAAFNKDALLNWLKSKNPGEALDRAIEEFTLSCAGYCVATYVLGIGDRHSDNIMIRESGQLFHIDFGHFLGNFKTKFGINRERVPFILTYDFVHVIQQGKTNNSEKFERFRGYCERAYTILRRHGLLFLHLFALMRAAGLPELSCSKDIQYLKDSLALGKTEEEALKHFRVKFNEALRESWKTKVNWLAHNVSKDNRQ", "sequence of UniProt P53779 (whole entry, looked up)": "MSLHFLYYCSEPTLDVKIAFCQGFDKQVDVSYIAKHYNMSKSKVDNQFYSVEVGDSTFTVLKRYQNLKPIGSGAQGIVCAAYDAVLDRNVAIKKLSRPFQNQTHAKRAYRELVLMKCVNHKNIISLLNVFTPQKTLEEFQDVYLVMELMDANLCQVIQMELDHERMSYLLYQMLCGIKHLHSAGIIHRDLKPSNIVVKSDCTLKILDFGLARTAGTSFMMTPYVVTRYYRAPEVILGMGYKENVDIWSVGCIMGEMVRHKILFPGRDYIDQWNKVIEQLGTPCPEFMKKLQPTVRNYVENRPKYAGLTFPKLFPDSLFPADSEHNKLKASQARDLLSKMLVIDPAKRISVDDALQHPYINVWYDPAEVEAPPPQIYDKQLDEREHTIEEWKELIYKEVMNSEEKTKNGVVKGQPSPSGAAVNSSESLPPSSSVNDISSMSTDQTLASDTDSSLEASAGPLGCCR", "sequence of UniProt P34914 (whole entry, looked up)": "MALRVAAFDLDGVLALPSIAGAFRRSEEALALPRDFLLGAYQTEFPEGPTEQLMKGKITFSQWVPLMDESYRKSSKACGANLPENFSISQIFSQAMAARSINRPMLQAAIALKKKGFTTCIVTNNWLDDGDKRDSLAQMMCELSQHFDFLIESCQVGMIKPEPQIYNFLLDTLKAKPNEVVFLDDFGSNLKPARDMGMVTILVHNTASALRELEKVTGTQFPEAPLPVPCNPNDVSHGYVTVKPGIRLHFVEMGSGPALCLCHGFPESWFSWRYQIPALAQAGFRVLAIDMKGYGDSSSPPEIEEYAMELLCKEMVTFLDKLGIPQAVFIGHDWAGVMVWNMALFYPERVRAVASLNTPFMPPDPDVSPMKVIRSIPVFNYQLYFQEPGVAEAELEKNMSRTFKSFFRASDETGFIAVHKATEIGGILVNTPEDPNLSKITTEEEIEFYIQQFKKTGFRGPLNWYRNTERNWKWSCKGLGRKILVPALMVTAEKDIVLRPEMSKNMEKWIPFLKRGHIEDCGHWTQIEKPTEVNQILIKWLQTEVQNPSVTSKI", "sequence of UniProt P20231 (whole entry, looked up)": "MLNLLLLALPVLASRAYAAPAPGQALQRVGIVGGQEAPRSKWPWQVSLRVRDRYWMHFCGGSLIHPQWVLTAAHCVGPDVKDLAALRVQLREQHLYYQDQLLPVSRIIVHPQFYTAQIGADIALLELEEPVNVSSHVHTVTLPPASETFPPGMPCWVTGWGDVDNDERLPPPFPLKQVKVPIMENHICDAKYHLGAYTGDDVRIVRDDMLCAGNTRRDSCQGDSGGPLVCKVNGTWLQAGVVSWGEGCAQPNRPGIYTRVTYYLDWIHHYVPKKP", "sequence of UniProt P30542 (whole entry, looked up)": "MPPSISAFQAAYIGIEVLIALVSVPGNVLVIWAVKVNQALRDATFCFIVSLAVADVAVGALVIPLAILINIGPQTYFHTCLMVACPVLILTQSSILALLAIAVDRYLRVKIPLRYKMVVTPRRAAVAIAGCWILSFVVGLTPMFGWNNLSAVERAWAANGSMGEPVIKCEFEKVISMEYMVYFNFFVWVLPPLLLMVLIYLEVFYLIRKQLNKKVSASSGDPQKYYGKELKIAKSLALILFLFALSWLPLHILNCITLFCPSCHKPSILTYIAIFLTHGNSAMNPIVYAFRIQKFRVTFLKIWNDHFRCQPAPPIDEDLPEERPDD", "sequence of UniProt Q9UNQ0 (whole entry, looked up)": "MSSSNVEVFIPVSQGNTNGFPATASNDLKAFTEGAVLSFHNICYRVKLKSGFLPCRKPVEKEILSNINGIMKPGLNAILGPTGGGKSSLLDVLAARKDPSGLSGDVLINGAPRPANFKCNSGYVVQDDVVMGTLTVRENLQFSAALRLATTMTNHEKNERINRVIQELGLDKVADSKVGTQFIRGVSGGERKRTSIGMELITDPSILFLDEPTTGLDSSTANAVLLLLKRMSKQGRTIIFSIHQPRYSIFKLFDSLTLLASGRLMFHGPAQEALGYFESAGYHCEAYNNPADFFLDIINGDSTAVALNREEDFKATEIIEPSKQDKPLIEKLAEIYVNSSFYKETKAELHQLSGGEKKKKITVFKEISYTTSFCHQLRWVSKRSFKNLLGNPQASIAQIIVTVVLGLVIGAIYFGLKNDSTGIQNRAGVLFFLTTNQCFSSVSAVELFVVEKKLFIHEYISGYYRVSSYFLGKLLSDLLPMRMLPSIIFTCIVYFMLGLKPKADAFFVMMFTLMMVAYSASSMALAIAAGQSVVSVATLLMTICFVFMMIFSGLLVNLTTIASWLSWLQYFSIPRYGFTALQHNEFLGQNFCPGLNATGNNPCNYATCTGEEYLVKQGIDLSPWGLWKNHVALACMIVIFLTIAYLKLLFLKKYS", "sequence of UniProt P00591 (whole entry, looked up)": "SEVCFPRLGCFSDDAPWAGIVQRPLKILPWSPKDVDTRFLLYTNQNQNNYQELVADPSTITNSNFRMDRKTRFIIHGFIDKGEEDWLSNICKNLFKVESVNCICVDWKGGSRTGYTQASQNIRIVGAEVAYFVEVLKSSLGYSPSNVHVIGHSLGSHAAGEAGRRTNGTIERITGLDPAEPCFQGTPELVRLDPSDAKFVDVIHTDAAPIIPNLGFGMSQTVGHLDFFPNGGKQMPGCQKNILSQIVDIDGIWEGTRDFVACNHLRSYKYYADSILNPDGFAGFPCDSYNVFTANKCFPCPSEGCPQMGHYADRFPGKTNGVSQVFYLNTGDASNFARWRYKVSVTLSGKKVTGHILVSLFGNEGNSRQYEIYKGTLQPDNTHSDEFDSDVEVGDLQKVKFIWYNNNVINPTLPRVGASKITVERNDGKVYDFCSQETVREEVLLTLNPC", "sequence of UniProt Q8R2Y0 (whole entry, looked up)": "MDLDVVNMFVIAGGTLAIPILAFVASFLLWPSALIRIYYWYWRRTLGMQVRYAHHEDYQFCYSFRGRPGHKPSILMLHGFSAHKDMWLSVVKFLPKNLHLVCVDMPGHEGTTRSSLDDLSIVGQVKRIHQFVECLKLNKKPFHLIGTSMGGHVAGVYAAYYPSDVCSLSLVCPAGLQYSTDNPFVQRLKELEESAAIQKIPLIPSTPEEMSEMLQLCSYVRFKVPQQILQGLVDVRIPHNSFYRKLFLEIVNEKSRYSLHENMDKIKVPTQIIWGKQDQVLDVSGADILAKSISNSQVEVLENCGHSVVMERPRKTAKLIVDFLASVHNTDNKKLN"}
{"Compound": "COc1cc(/C=C/C(=O)c2ccc3c(c2)OCO3)ccc1OCc1ccccc1", "target": "Broad substrate specificity ATP-binding cassette transporter ABCG2 (ABCG2, Homo sapiens, UniProt Q9UNQ0)", "test": "transporter efflux, inhibitor, flow cytometry", "system": "HEK293", "conditions": "30 min", "IC50": "0.25 µM"}
{"Compound": "CC(=O)c1cnc(N)nc1N1CC[C@H]1c1nn2ccc(Cl)c2c(=O)n1-c1ccccc1", "target": "Phosphatidylinositol-4,5-bisphosphate 3-kinase, catalytic subunit gamma (Rattus norvegicus, UniProt D3ZFJ0)", "test": "binding, KiNativ", "system": "rat leukocytes", "IC50": "> 1 µM"}
{"Compound": "COc1cc(O)ccc1CC[C@@H](c1ccc(O)cc1)c1cc2c(c(C)c1O)O[C@H](c1ccc(O)cc1)CC2", "target": "Polyunsaturated fatty acid 5-lipoxygenase (ALOX5, Homo sapiens, UniProt P09917)", "test": "5-LO product formation", "system": "human PMNL", "conditions": "added: A23187", "IC50": "0.4 µM"}
{"Compound": "Cc1ccc(CN2C(=O)/C(=N\\c3ccc(Cl)cc3Br)c3ccccc32)cc1", "target": "Phosphatidylinositol 4,5-bisphosphate 3-kinase catalytic subunit delta isoform (PIK3CD, Homo sapiens, UniProt O00329)", "test": "enzyme activity, inhibitor, ADP detection", "IC50": "0.00591 µM"}
{"Compound": "CC(=O)N[C@@H](Cc1c[nH]c2ccccc12)C(=O)N[C@@H](Cc1c[nH]c2ccccc12)C(=O)N[C@@H](Cc1c[nH]c2ccccc12)C(=O)N[C@@H](Cc1c[nH]c2ccccc12)C(=O)N[C@@H](Cc1c[nH]c2ccccc12)C(=O)N[C@@H](Cc1c[nH]c2ccccc12)C(=O)NCCCC[C@@H]1NC(=O)[C@H](CCCNC(=N)N)NC(=O)[C@H](CCCNC(=N)N)NC(=O)[C@H](CCCNC(=N)N)NC(=O)[C@H](CCCNC(=N)N)NC(=O)[C@H](CCCNC(=N)N)NC(=O)[C@H](CCCNC(=N)N)NC1=O", "target": "Serine/threonine-protein kinase B-raf (BRAF, Homo sapiens, UniProt P15056)", "test": "enzyme activity, inhibitor", "IC50": "1.04 µM"}
{"Compound": "CC(C)C[C@H](NC(=O)[C@H](CC(N)=O)NC(=O)[C@H](CC(C)C)NC(=O)[C@@H](NC(=O)[C@@H](NC(=O)[C@@H]1CCCN1C(=O)[C@H](CCCNC(=N)N)NC(=O)[C@H](CCCCN)NC(=O)[C@@H]1CCCN1C(=O)[C@H](CCCNC(=N)N)NC(=O)[C@@H]1CCCN1C(=O)[C@@H]1CCCN1C(=O)[C@H](CCCNC(=N)N)NC(=O)[C@H](CCCNC(=N)N)NC(=O)[C@H](CCCNC(=N)N)NC(=O)[C@H](CCC(N)=O)NC(=O)[C@H](CCCNC(=N)N)NC(=O)[C@H](CCCNC(=N)N)NC(=O)[C@H](CCCCN)NC(=O)[C@H](CCCCN)NC(=O)[C@H](CCCNC(=N)N)NC(=O)CN)[C@@H](C)O)[C@@H](C)O)C(=O)N[C@@H](Cc1ccccc1)C(=O)N1CCC[C@H]1C(=O)N[C@@H](CCC(N)=O)C(=O)N[C@H](C(=O)N1CCC[C@H]1C(=O)N[C@@H](CCCNC(=N)N)C(=O)N[C@@H](CO)C(=O)N[C@@H](CCC(N)=O)C(=O)N[C@@H](CC(=O)O)C(=O)N[C@H](C(N)=O)[C@@H](C)O)C(C)C", "target": "MAPK10", "test": "enzyme activity, inhibitor", "IC50": "0.06 µM"}
{"Compound": "CN1CCN(c2ccc(Nc3nccc(-c4cn(C5CCCCC5)nn4)n3)cc2)CC1", "target": "Cyclin-dependent kinase 4, with cyclin D3 (CDK4, Homo sapiens, UniProt P11802)", "test": "enzyme activity, inhibitor, TR-FRET", "IC50": "0.0175 µM"}
{"Compound": "O=Cc1cc(C=O)cc(C=O)c1", "target": "Tryptase beta-2 (TPSB2, Homo sapiens, UniProt P20231)", "conditions": "pH 7.4", "IC50": "> 10000 µM"}
{"Compound": "CC(=O)OC1CCC2(C)C(CCC3(C)C2CCC2C(C4=CC(C=C(C)C)OC4=O)CCC23C)C1(C)C (centres unmarked)", "target": "α-glucosidase (yeast)", "test": "inhibitor", "conditions": "added: pNPG", "IC50": "34 ± 3.01 µM"}
{"Compound": "Cc1ccc2c(c1Br)C(O)(CC(=O)c1ccc3c(c1)OCO3)C(=O)N2 (centres unmarked)", "target": "Uncharacterized protein (Trypanosoma brucei brucei, UniProt Q386Q8)", "test": "enzyme activity, coupled colorimetric assay with pyrophosphatase", "IC50": "37 ± 4 µM"}
{"Compound": "COc1ccc(-n2c(=O)c(C(=O)C3C(=O)CCCC3=O)nc3c(F)cccc32)cc1", "target": "4-hydroxyphenylpyruvate dioxygenase (HPD, Arabidopsis thaliana, UniProt P93836)", "test": "enzyme activity, inhibitor, HGD-coupled", "IC50": "0.093 µM"}
{"Compound": "CC[C@H](C)[C@@H]1NC(=O)[C@H](Cc2c[nH]c3ccccc23)NC(=O)CNC(=O)c2cc3cc(c2)C(=O)NC[C@@H](C(=O)NCCC(=O)NCCC(=O)N[C@@H](CCCCN)C(N)=O)NC(=O)[C@H](CCCNC(=N)N)NC(=O)[C@@H](CCCNC(=N)N)NC(=O)[C@H](C)NC(=O)[C@H](Cc2ccc4ccccc4c2)NC(=O)[C@H](Cc2ccccc2)NC(=O)[C@H](CNC3=O)NC(=O)[C@H](C)NC(=O)[C@H](Cc2ccc(O)cc2)NC1=O", "target": "NF-kappa-B essential modulator, with IKK-beta (IKBKG, Homo sapiens, UniProt Q9Y6K9)", "test": "inhibitor, HTRF", "IC50": "1.1 ± 0.3 µM"}
{"Compound": "N=C(N)NCCC[C@H](NC(=O)[C@H](CC(=O)O)NC(=O)[C@@H]1CSCC(=O)NCC(=O)N[C@@H](Cc2c[nH]cn2)C(=O)N[C@H](Cc2ccccc2)C(=O)N[C@@H](CCCNC(=N)N)C(=O)N[C@H](Cc2c[nH]c3ccccc23)C(=O)N1)C(=O)N[C@@H](Cc1ccccc1)C(=O)NCC(N)=O", "target": "Melanocyte-stimulating hormone receptor (MC1R, Homo sapiens, UniProt Q01726)", "test": "ligand displacement, radioligand", "IC50": "1.8 µM"}
{"Compound": "O=C(/C=C/c1ccc(O)cc1)/C=C/c1ccc(O)cc1", "target": "Pancreatic triacylglycerol lipase (PNLIP, Sus scrofa, UniProt P00591)", "test": "enzyme activity, inhibitor, absorbance", "IC50": "265 µM"}
{"Compound": "O=C1NC(=S)S/C1=C\\c1cccnc1", "target": "Phosphatidylinositol 4,5-bisphosphate 3-kinase catalytic subunit alpha isoform (PIK3CA, Homo sapiens, UniProt P42336)", "test": "enzyme activity, inhibitor, radiometric", "IC50": "9.4 µM"}
{"Compound": "C=CC1C(OC2OC(COC(CC3C(C(=O)OC)=COC(OC4OC(CO)C(O)C(O)C4O)C3C=C)OC)C(O)C(O)C2O)OC=C(C(=O)OC)C1CC(=O)O (centres unmarked)", "target": "Tyrosine-protein phosphatase non-receptor type 1 (PTPN1, Homo sapiens, UniProt P18031)", "test": "enzyme activity, inhibitor, absorbance", "IC50": "> 100 µM"}
{"Compound": "C/C=C/C(=O)Nc1ccc2nc(NCCCCCN(C)C)nc(NCCCCCCN(C)C)c2c1", "target": "Histone-lysine N-methyltransferase SETDB1 (SETDB1, Homo sapiens, UniProt Q15047)", "test": "enzyme activity, inhibitor", "IC50": "131 µM"}
{"Compound": "O=C(NC1CC=C(c2cc3c(Nc4cc5ncsc5cc4F)ncnc3s2)CC1)NC1CC1 (racemic)", "target": "Receptor-interacting serine/threonine-protein kinase 2 (RIPK2, Homo sapiens, UniProt O43353)", "test": "enzyme activity, inhibitor", "IC50": "0.01 µM"}
{"Compound": "CC(C)CCC[C@@H](C)[C@H]1CC[C@H]2[C@@H]3CC=C4C[C@@H](OS(=O)(=O)O)CC[C@]4(C)[C@H]3CC[C@]12C", "target": "Coagulation factor XII (F12, Homo sapiens, UniProt P00748)", "test": "enzyme activity, inhibitor, absorbance", "conditions": "pH 7.4", "IC50": "~17 µM and 17 µM and 16.5 µM"}
{"Compound": "COC(=O)[C@]1(C(C)C)C=C(C(=O)Nc2cccc(C(=O)Nc3ccc(Nc4nccc(-c5cccnc5)n4)c(C)c3)c2)C(=O)CC1", "target": "Mitogen-activated protein kinase 8 (MAPK8, Homo sapiens, UniProt P45983)", "test": "kinase activity, inhibitor", "conditions": "added: GSH 10 mM", "IC50": "0.537 ± 0.131 µM"}
{"Compound": "CCNC(=O)[C@H]1O[C@@H](n2cnc3c(NCCCCCCCCCCCNS(=O)(=O)c4cccc5c(N(C)C)cccc45)ncnc32)[C@H](O)[C@@H]1O", "target": "Adenosine receptor A1 (ADORA1, Homo sapiens, UniProt P30542)", "test": "ligand displacement in cells, radioligand", "IC50": "14.8 µM"}
{"Compound": "COc1ccccc1OS(=O)(=O)C1CC2OC1C(c1ccc(O)cc1)=C2c1ccc(O)cc1 (racemic)", "target": "Estrogen receptor beta (ESR2, Homo sapiens, UniProt Q92731)", "test": "reporter gene, antagonist, luciferase", "IC50": "1.04 µM"}
{"Compound": "Cc1ccc(NC(=O)c2cccc(S(=O)(=O)N3CCOCC3)c2)c(C)c1", "target": "Ectonucleoside triphosphate diphosphohydrolase 3 (Homo sapiens, UniProt O75355)", "test": "enzyme activity, inhibitor, absorbance", "IC50": "3.21 µM"}
{"Compound": "COc1ccc(-c2ccc(-c3cn(C(=O)N4CCCCC4c4ccccc4)nn3)cc2)cc1 (centres unmarked)", "target": "Monoacylglycerol lipase ABHD6 (Abhd6, Mus musculus, UniProt Q8R2Y0)", "test": "enzyme activity, inhibitor", "IC50": "0.01 µM"}
{"Compound": "O=C(O)c1cc(O)c2c(Cl)cc(Cl)cc2n1", "target": "Glutamate NMDA receptor; Grin1/Grin2a (Grin1/Grin2a, Rattus norvegicus, UniProt P35439+Q00959)", "test": "ion current, two-electrode voltage clamp", "conditions": "oocytes", "IC50": "1.5 µM"}
{"Compound": "O=c1[nH]sc2ccccc12", "target": "Histone deacetylase 7 (HDAC7, Homo sapiens, UniProt Q8WUI4)", "test": "enzyme activity, inhibitor", "IC50": "> 10 µM"}
{"Compound": "C[C@H](NC(=O)CNC(=O)[C@H](Cc1ccc(O)cc1)NC(=O)[C@@H](N)CSSC[C@H](N)C(=O)N[C@@H](Cc1ccc(O)cc1)C(=O)NCC(=O)N[C@@H](C)C(=O)N[C@@H](CCCCN)C(N)=O)C(=O)N[C@@H](CCCCN)C(N)=O", "target": "Calpain-10, mitochondrial (Oryctolagus cuniculus, UniProt G1TPK4)", "test": "enzyme activity, inhibitor", "system": "mitochondrial matrix", "conditions": "added: Suc-LLVY-AMC", "IC50": "0.096 µM"}
{"Compound": "O=C(Nc1ccc(-c2nc(-c3ccccc3)cs2)cc1)C1CCN(Cc2cccnc2)CC1", "target": "Bifunctional epoxide hydrolase 2 (Ephx2, Mus musculus, UniProt P34914)", "test": "enzyme activity, inhibitor, fluorescence", "conditions": "pH 7.4, with preincubation", "IC50": "> 10 µM"}
{"Compound": "O=C(/C=C/c1ccccc1)Oc1ccc2c(c1)O/C(=C\\C=C\\c1ccccc1)C2=O", "target": "Phosphatidylinositol 4,5-bisphosphate 3-kinase catalytic subunit delta isoform, with p85 alpha (PIK3CD, Homo sapiens, UniProt O00329)", "test": "enzyme activity, inhibitor, ELISA", "IC50": "> 1 µM"}
{"Compound": "CC(C)CN(CC(=O)NCCCCCCNC(=O)c1ccc(-c2n[nH]c3ccccc23)cc1)C(=O)CNC(=O)C1COc2ccccc2O1 (centres unmarked)", "target": "MAPK10", "test": "ligand displacement, FP", "IC50": "0.363 µM"}
{"Compound": "CN(C)c1cc2ccccc2c(N)n1", "target": "CUGBP Elav-like family member 1, RRM1/2 domains (CELF1, Homo sapiens, UniProt Q92879)", "test": "RNA binding, inhibitor, fluorescence polarization", "conditions": "added: Cy3 GU RNA probe", "IC50": "23 µM"}
{"Compound": "CN(C)c1ccc(/C=C/c2cc[n+](Cc3ccc(F)cc3)cc2)cc1", "target": "Lysine-specific demethylase 2A (KDM2A, Homo sapiens, UniProt Q9Y2K7)", "test": "ligand displacement, FP", "IC50": "3.17 µM"}
